# Experimental data pooled from the literature.
# Lines come from different studies, so protocols differ.
# Organism: Staphylococcus epidermidis
SMILES,test,test system,setting,MIC
CC1COC2=C1C(=O)C(=O)c1c2ccc2c1C(OC(=O)CNC(=O)C(N)CO)CCC2(C)C (mixture of isomers),,GDMCC 1.143,48 h,63 µM
CC[C@H](C)[C@H](NC(=O)[C@H](Cc1c[nH]c2ccccc12)NC(=O)[C@H](Cc1ccc(O)cc1)NC(=O)[C@H](CCCCN)NC(=O)[C@H](CC(C)C)NC(=O)[C@H](CO)NC(=O)[C@@H](N)Cc1ccccc1)C(=O)N[C@@H](CCCNC(=N)N)C(=O)N[C@@H](Cc1ccc(O)cc1)C(=O)N[C@@H](CCCCN)C(=O)N[C@@H](CCCNC(=N)N)C(=O)N[C@@H](CCC(N)=O)C(=O)NCC(=O)N[C@@H](C)C(=O)N[C@@H](C)C(=O)N[C@@H](CCCNC(=N)N)C(=O)N[C@@H](Cc1ccccc1)C(N)=O,broth dilution,KCTC 1917,,100 µM
Cc1cc(C)c2nc3c(Br)cc(Br)c(O)c3nc2c1,broth microdilution,MRSE 35984,"16 h, 37 °C",0.1 µM
Oc1c(Br)cc(Br)c2nc3cc(C(F)(F)F)ccc3nc12,broth microdilution,12228,,0.04 µM
O=C(c1ccccc1O)c1[nH]c(Cl)c(Cl)c1-n1c(C(=O)c2ccccc2O)cc(Cl)c1Cl,microbial growth,ATCC14990,,5.33 µM
Oc1c(Br)cc(Br)c2nc3ccc(C(F)(F)F)cc3nc12,broth microdilution,12228,,0.15 µM
CC(C)C[C@H](NC(=O)[C@H](CCCNC(=N)N)NC(=O)CNC(=O)CNC(=O)[C@@H](N)CCCNC(=N)N)C(=O)N[C@H]1CSSC[C@@H](C(=O)N[C@H](C(=O)NCC(=O)N[C@@H](CCCNC(=N)N)C(N)=O)C(C)C)NC(=O)[C@H](C(C)C)NC(=O)[C@@H]2CSSC[C@H](NC(=O)[C@H](Cc3ccc(O)cc3)NC1=O)C(=O)N[C@@H](CCCNC(=N)N)C(=O)N[C@@H](CCCNC(=N)N)C(=O)N[C@@H](CCCNC(=N)N)C(=O)N[C@@H](Cc1ccccc1)C(=O)N2,broth dilution,ATCC 51625,"18 h, 37 °C",2.3 µM
CC[C@H](C)[C@H](N)C(=O)N[C@@H](CCCNC(=N)N)C(=O)N[C@H](C(=O)N[C@@H](Cc1c[nH]c2ccccc12)C(=O)N[C@@H](CCCCN)C(=O)N[C@@H](CCCCN)C(=O)N[C@H](C(=O)N[C@H](C(=O)N[C@@H](CCCNC(=N)N)C(=O)N[C@@H](CCCCN)C(=O)N[C@@H](Cc1c[nH]c2ccccc12)C(=O)N[C@@H](CCCCN)C(=O)N[C@@H](C)C(=O)N[C@H](C(=O)N[C@@H](Cc1c[nH]c2ccccc12)C(=O)N[C@@H](Cc1c[nH]cn1)C(N)=O)[C@@H](C)CC)C(C)C)[C@@H](C)CC)C(C)C,broth dilution,KCTC 1917,,6.3 µM
CC[C@H](C)[C@H](NC(=O)[C@H](CCCCN)NC(=O)[C@H](CCCCN)NC(=O)[C@H](Cc1ccccc1)NC(=O)[C@H](Cc1ccccc1)NC(=O)[C@H](CCCCN)NC(=O)[C@H](CCCCN)NC(=O)[C@H](Cc1ccccc1)NC(=O)[C@H](CCCNC(=N)N)NC(=O)[C@@H](N)CCCCN)C(=O)N[C@@H](CCCCN)C(=O)N[C@@H](CCCCN)C(=O)N[C@@H](CO)C(=O)N[C@H](C(=O)N[C@@H](CCCCN)C(=O)N[C@@H](CCCCN)C(=O)N[C@@H](CCCNC(=N)N)C(=O)N[C@H](C(=O)N[C@@H](CCCCN)C(=O)N[C@@H](CCCCN)C(=O)N[C@@H](CC(C)C)C(=O)N[C@@H](Cc1ccccc1)C(=O)N[C@@H](CCCCN)C(=O)N[C@@H](CCCCN)C(=O)N1CCC[C@H]1C(=O)N[C@@H](CCCNC(=N)N)C(=O)N[C@H](C(=O)N[C@H](C(=O)N1CCC[C@H]1C(=O)N[C@H](C(=O)N[C@@H](CO)C(=O)N[C@H](C(=O)N1CCC[C@H]1C(=O)N[C@@H](Cc1ccccc1)C(=O)O)[C@@H](C)CC)[C@@H](C)CC)[C@@H](C)CC)C(C)C)C(C)C)C(C)C,broth microdilution,"clinical isolate, Mueller-Hinton broth","20 h, 37 °C",8 mg/L
CC[C@H](C)[C@H](N)C(=O)N[C@@H](CCCNC(=N)N)C(=O)N[C@H](C(=O)N[C@@H](Cc1c[nH]c2ccccc12)C(=O)N[C@@H](Cc1ccccc1)C(=O)N[C@H](C(=O)N[C@@H](CCCCN)C(=O)N[C@H](C(=O)N[C@@H](CCCNC(=N)N)C(=O)N[C@@H](CCCCN)C(=O)N[C@@H](CCSC)C(=O)N[C@@H](CCCCN)C(=O)N[C@@H](C)C(=O)N[C@H](C(=O)N[C@@H](Cc1ccc(O)cc1)C(=O)N[C@@H](Cc1c[nH]cn1)C(=O)N[C@H](C(N)=O)[C@@H](C)O)[C@@H](C)CC)C(C)C)[C@@H](C)CC)C(C)C,broth dilution,KCTC 1917,,25 µM
O=c1n(CCNCCOS(=O)(=O)c2ccccc2)c(=O)n(S(=O)(=O)c2ccccc2)c(=O)n1S(=O)(=O)c1ccccc1,"microbial growth, broth dilution",,,2 mg/L
Oc1c(Br)cc(Br)c2nc3ccccc3nc12,broth microdilution,12228,,2.35 µM
CC[C@H](C)[C@H](NC(=O)[C@H](Cc1c[nH]c2ccccc12)NC(=O)[C@H](Cc1ccc(O)cc1)NC(=O)[C@H](CCCCN)NC(=O)[C@H](CC(C)C)NC(=O)[C@@H](N)CO)C(=O)N[C@@H](CCCNC(=N)N)C(=O)N[C@@H](Cc1ccc(O)cc1)C(=O)N[C@@H](CCCCN)C(=O)N[C@@H](CCCNC(=N)N)C(=O)N[C@@H](CCC(N)=O)C(=O)NCC(=O)N[C@@H](C)C(=O)N[C@@H](C)C(=O)N[C@@H](CCCNC(=N)N)C(=O)N[C@@H](Cc1ccccc1)C(N)=O,broth dilution,KCTC 1917,,25 µM

# For quick reference, copied from above:
SMILES,test,test system,setting,MIC
Oc1c(Br)cc(Br)c2nc3ccccc3nc12,broth microdilution,12228,,2.35 µM
CC[C@H](C)[C@H](NC(=O)[C@H](Cc1c[nH]c2ccccc12)NC(=O)[C@H](Cc1ccc(O)cc1)NC(=O)[C@H](CCCCN)NC(=O)[C@H](CC(C)C)NC(=O)[C@@H](N)CO)C(=O)N[C@@H](CCCNC(=N)N)C(=O)N[C@@H](Cc1ccc(O)cc1)C(=O)N[C@@H](CCCCN)C(=O)N[C@@H](CCCNC(=N)N)C(=O)N[C@@H](CCC(N)=O)C(=O)NCC(=O)N[C@@H](C)C(=O)N[C@@H](C)C(=O)N[C@@H](CCCNC(=N)N)C(=O)N[C@@H](Cc1ccccc1)C(N)=O,broth dilution,KCTC 1917,,25 µM
